Published values of several laboratories.
Each line is one published result; not all experiments were run side by side. pKd: −log10 of the molar value.

Molecule	tested on	assay	test system	setting	how to read	endpoint	value
IGINITRFQTLLALH	human CD4 T cells	AIM	peptide			responding donors	9%
CCc1c(C(=O)C(N)=O)c2c(OCC(=O)O)cccc2n1Cc1ccccc1			mouse	120 µg/mouse, observed up to 24 h, with: Daboia russelii venom, West, preincubated		time of death	> 24 h
O=c1cc(-c2ccc(O)cc2)oc2cc(O)c(O)c(O)c12	Spike glycoprotein (Severe acute respiratory syndrome coronavirus 2, UniProt P0DTC2)	binding, biolayer interferometry				pKd	4.28
Cn1cnc(Cn2c(=O)[nH]/c(=N\c3cc4cn(C)nc4cc3Cl)n(Cc3cc(F)c(F)cc3F)c2=O)n1			human, mild renal impairment, plasma	oral, 375 mg single dose		terminal elimination rate constant	3.69e-06 s⁻¹
VRIIMRLWLCWKCRS	human CD4 T cells	AIM	peptide			responding donors	14%
CNC(=O)[C@@H](NC(=O)[C@H](CC(C)C)[C@H](O)C(=O)NO)C(C)(C)C			mouse	intravenous, 60 µg/mouse, 24 h, with: 2.5 LD50 Daboia russelii venom, preincubated		survival	0%
O=C(NCCCN1CCCCCC1)c1ccc2c(c1)sc1nc(-c3ccccc3)cn12	SARS-CoV-2	cytopathic effect	USA_WA1/2020	round 2, 5-point		maximum response	76.6%
CC[C@H](C)[C@H](NC(=O)[C@H](CC(C)C)NC(=O)[C@H](Cc1c[nH]c2ccccc12)NC(=O)[C@H](CCC(N)=O)NC(=O)[C@@H](NC(=O)[C@H](Cc1ccccc1)NC(=O)[C@H](C)NC(=O)[C@H](CCCCNC(=O)COCCOCCNC(=O)COCCOCCNC(=O)CC[C@H](NC(=O)CCCCCCCCCCCCCCCCCCC(=O)O)C(=O)O)NC(=O)[C@H](CCC(N)=O)NC(=O)[C@H](C)NC(=O)[C@@H](NC(=O)[C@H](CCCCN)NC(=O)[C@H](CC(=O)O)NC(=O)[C@H](CC(C)C)NC(=O)C(C)(C)NC(=O)[C@@H](NC(=O)[C@H](CO)NC(=O)[C@H](Cc1ccc(O)cc1)NC(=O)[C@H](CC(=O)O)NC(=O)[C@H](CO)NC(=O)[C@@H](NC(=O)[C@H](Cc1ccccc1)NC(=O)[C@@H](NC(=O)CNC(=O)[C@H](CCC(=O)O)NC(=O)C(C)(C)NC(=O)[C@@H](N)Cc1ccc(O)cc1)[C@@H](C)O)[C@@H](C)O)[C@@H](C)CC)[C@@H](C)CC)C(C)C)C(=O)N[C@@H](C)C(=O)NCC(=O)NCC(=O)N1CCC[C@H]1C(=O)N[C@@H](CO)C(=O)N[C@@H](CO)C(=O)NCC(=O)N[C@@H](C)C(=O)N1CCC[C@H]1C(=O)N1CCC[C@H]1C(=O)N1CCC[C@H]1C(=O)N[C@@H](CO)C(N)=O			healthy subjects, single ascending dose	0.5 mg, day 29	baseline: baseline	systolic blood pressure change	5.29 mmHg
Nc1ncnc2c([C@@H]3N[C@H](CO)[C@@H](O)[C@H]3O)c[nH]c12	Western equine encephalitis virus	viral replication, inhibitor	Vero 76	0.9 µM		inhibition	0%
COc1cccc(CNC(=O)C2CCN(Cc3cc4ccccc4n3Cc3ccccc3)CC2)c1OC	SARS-CoV-2	cytopathic effect	USA_WA1/2020	retest, 8-point, duplicates		maximum response	4.75%
LEAPFLYLYALVYFL	human CD4 T cells	AIM	peptide			responding donors	7%
CN(C)c1ccc(-c2nc(-c3cccs3)c(-c3cccs3)[nH]2)cc1	SARS-CoV-2	cytopathic effect	USA_WA1/2020	round 1, 5-point		maximum response	41.1%
COC(=O)CC[C@H](NC(=O)[C@H](CC(=O)OC)NC(=O)OCc1ccccc1)C(=O)N[C@H](C(=O)N[C@@H](CC(=O)OC)C(=O)CF)C(C)C	Replicase polyprotein 1ab, main protease (rep, Severe acute respiratory syndrome coronavirus 2, UniProt P0DTD1)	reporter gene (mKate2), inhibitor		20 µM		inhibition	-0.475%

Some of these lines once more:
Molecule	tested on	assay	test system	setting	how to read	endpoint	value
CNC(=O)[C@@H](NC(=O)[C@H](CC(C)C)[C@H](O)C(=O)NO)C(C)(C)C			mouse	intravenous, 60 µg/mouse, 24 h, with: 2.5 LD50 Daboia russelii venom, preincubated		survival	0%
